Experimental data collected from several papers.
Each line is one published result; not all experiments were run side by side.
Sequence of UniProt Q13557 (whole entry, looked up): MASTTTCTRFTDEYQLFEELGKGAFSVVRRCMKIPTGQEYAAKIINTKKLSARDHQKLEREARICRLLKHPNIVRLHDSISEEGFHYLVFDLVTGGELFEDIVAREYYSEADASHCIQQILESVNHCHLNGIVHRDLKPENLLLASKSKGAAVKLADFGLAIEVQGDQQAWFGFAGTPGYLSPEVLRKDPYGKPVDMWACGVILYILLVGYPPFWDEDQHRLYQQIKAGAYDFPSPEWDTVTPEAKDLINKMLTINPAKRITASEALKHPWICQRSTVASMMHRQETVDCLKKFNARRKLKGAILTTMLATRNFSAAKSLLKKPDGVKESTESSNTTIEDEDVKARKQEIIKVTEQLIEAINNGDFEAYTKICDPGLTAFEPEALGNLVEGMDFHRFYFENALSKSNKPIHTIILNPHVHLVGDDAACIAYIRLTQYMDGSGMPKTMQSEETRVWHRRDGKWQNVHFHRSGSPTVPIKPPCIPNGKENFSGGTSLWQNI

| SMILES | tested on | assay | setting | measurement | value |
| --- | --- | --- | --- | --- | --- |
| CC[C@H]1CN2CCc3cc(OC)c(OC)cc3[C@@H]2C[C@@H]1C[C@H]1NCCc2cc(OC)c(OC)cc21 | HepG2 | cell growth or viability, ATP luminescence | 72 h | CC50 | 1.92 µM |
| C[N+]1=C2C=C(NCCc3ccc(O)cc3)C(=O)c3[nH]cc(c32)CC1 | HepG2 | cell growth or viability, MTT | 72 h | CC50 | 0.2 µM |
| CC(C)C[C@H](NC(=O)[C@@H](NC(=O)c1ccc[nH]1)C(C)C)C(=O)N[C@H](C=O)C[C@@H]1CCCNC1=O | A549 | cell growth or viability, MTT | 24 h | CC50 | > 100 µM |
| C=C(C)[C@]12C[C@@H](C)[C@@]34O[C@](CCCCCCCCCCC)(O[C@@H]1[C@@H]3[C@@H]1O[C@]1(CO)[C@@H](O)[C@]1(O)C(=O)C(C)=C[C@H]14)O2 | MT4 | cell growth or viability | – | CC50 | 5.17 µM |
| CCOC(=O)C1=C(CN2CCN(Cc3ccc(B4OC(C)(C)C(C)(C)O4)cc3)CC2)NC(c2nccs2)=NC1c1ccc(F)cc1Br (stereo not shown) | HepDES19 | cell growth or viability, MTS | 72 h | CC50 | 42.3 µM |
| CC(C)C[C@H](NC(=O)[C@@H](NC(=O)/C=C/c1ccc(N(C)C)cc1)C(C)C)C(=O)N[C@H](C=O)C[C@@H]1CCCNC1=O | A549 | cell growth or viability, MTT | 24 h | CC50 | > 100 µM |
| Nc1ccn([C@@H]2CS[C@H](CO)O2)c(=O)n1 | HepDES19 | cell growth or viability, MTS | 72 h | CC50 | > 50 µM |
| O=c1nc(NO)ccn1[C@@H]1O[C@H](CO)[C@@H](O)[C@H]1O | Huh-7 | cell growth or viability | – | CC50 | 56.7 µM |
| [2H]c1c([2H])c([C@]2([2H])CCCN2C(=O)C(C)(C)Oc2ccc3cn[nH]c3c2)c([2H])c([2H])c1C([2H])([2H])[2H] | Calcium/calmodulin-dependent protein kinase type II subunit delta (CAMK2D, Homo sapiens, UniProt Q13557) | binding, competition with immobilised ligand | 1 µM | remaining binding | 72% |
| CCOC(=O)C1=C(CN2CCC[C@@H]2C(=O)Nc2cccc(B(O)O)c2)NC(c2nccs2)=N[C@H]1c1ccc(F)cc1Br | HepDES19 | cell growth or viability, MTS | 72 h | CC50 | 29.8 µM |
| CCC(CC)COC(=O)[C@H](C)N[P@](=O)(OC[C@H]1O[C@@](C#N)(c2ccc3c(N)ncnn23)[C@H](O)[C@@H]1O)Oc1ccccc1 | Calu-3 | cell growth or viability | – | CC50 | > 100 µM |
| C#Cc1cccc(Nc2ncnc3cc(OCCOC)c(OCCOC)cc23)c1 | Calu-3 | cell growth or viability, resazurin | – | CC50 | > 60 µM |
| CCOC(=O)C1=C(CN2CCC(C(=O)Nc3cccc(B(O)O)c3)C2)NC(c2nccs2)=NC1c1ccc(F)cc1Br (stereo not shown) | HepDES19 | cell growth or viability, MTS | 72 h | CC50 | 27.1 µM |
| C#CC[C@H](NC(=O)/C=C/c1ccccc1)C(=O)N[C@H](C=O)C[C@@H]1CCCNC1=O | A549 | cell growth or viability, MTT | 24 h | CC50 | > 100 µM |
| CCOC(=O)C1=C(CN2CCC(C(=O)Nc3ccccc3B(O)O)C2)NC(c2nccs2)=NC1c1ccc(F)cc1Br (stereo not shown) | HepDES19 | cell growth or viability, MTS | 72 h | CC50 | > 50 µM |
| COc1ccc2cc1Oc1ccc(cc1)C[C@H]1c3cc(c(OC)cc3CCN1C)Oc1c(OC)c(OC)cc3c1[C@H](C2)N(C)CC3 | MDCK | cell growth or viability, CCK-8 | 48 h | CC50 | 66.8 µM |
| CC(C)C[C@H](NC(=O)[C@@H](NC(=O)c1ccccn1)C(C)C)C(=O)N[C@H](C=O)C[C@@H]1CCCNC1=O | A549 | cell growth or viability, MTT | 24 h | CC50 | > 100 µM |
| COc1ccc2cc1Oc1ccc(cc1)C[C@H]1c3cc(c(OC)cc3CCN1C)Oc1c(O)c(OC)cc3c1[C@H](C2)N(C)CC3 | A549 | cell growth or viability, CCK-8 | 48 h | CC50 | 46.8 µM |
| CC(C)C[C@H](NC(=O)[C@@H](NC(=O)c1ccncc1)C(C)C)C(=O)N[C@H](C=O)C[C@@H]1CCCNC1=O | A549 | cell growth or viability, MTT | 24 h | CC50 | > 100 µM |
| CCC(C)C(NC(=O)C1N2C(=O)c3ccccc3C2SC1(C)C)C(=O)NC(CO)C(C)C (stereo not shown) | Calu-3 | cell growth or viability, MTT | 48 h | CC50 | > 250 µM |
| CC(C)C[C@H](NC(=O)[C@@H](NC(=O)c1ccco1)C(C)C)C(=O)N[C@H](C=O)C[C@@H]1CCCNC1=O | A549 | cell growth or viability, MTT | 24 h | CC50 | > 100 µM |
| CCOC(=O)C1=C(CN2CCN(Cc3cccc(B4OC(C)(C)C(C)(C)O4)c3)CC2)NC(c2nccs2)=NC1c1ccc(F)cc1Br (stereo not shown) | HepDES19 | cell growth or viability, MTS | 72 h | CC50 | 23.5 µM |
| COc1ccc2cc1Oc1ccc(cc1)C[C@H]1c3c(cc4c(c3Oc3cc5c(cc3OC)CCN(C)[C@@H]5C2)OCO4)CCN1C | A549 | cell growth or viability, CCK-8 | 48 h | CC50 | 49.6 µM |
| C#CC[C@H](NC(=O)/C=C/c1ccccc1)C(=O)N[C@H](C=O)C[C@@H]1CCNC1=O | A549 | cell growth or viability, MTT | 24 h | CC50 | > 100 µM |
| CCOC(=O)C1=C(CN2CCC[C@@H]2C(=O)Nc2ccc(B(O)O)cc2)NC(c2nccs2)=N[C@H]1c1ccc(F)cc1Br | HepDES19 | cell growth or viability, MTS | 72 h | CC50 | 32 µM |

Excerpt of the above:
| SMILES | tested on | assay | setting | measurement | value |
| --- | --- | --- | --- | --- | --- |
| CC(C)C[C@H](NC(=O)[C@@H](NC(=O)c1ccccn1)C(C)C)C(=O)N[C@H](C=O)C[C@@H]1CCCNC1=O | A549 | cell growth or viability, MTT | 24 h | CC50 | > 100 µM |
| Nc1ccn([C@@H]2CS[C@H](CO)O2)c(=O)n1 | HepDES19 | cell growth or viability, MTS | 72 h | CC50 | > 50 µM |
| CCOC(=O)C1=C(CN2CCC(C(=O)Nc3cccc(B(O)O)c3)C2)NC(c2nccs2)=NC1c1ccc(F)cc1Br (stereo not shown) | HepDES19 | cell growth or viability, MTS | 72 h | CC50 | 27.1 µM |
| O=c1nc(NO)ccn1[C@@H]1O[C@H](CO)[C@@H](O)[C@H]1O | Huh-7 | cell growth or viability | – | CC50 | 56.7 µM |
